Results gathered from unrelated publications.
Lines come from different studies, so protocols differ. ± gives the spread as reported.

CCCCCCCC/C=C\CCCCCCCCOP(O)(O)=S.N
half-life (mouse, female, nonirradiated; sc, dose not given): 1.38 h

CCCCCCCCCCCCCCCC(=O)NCCCC[C@H](NC(=O)[C@H](CCCCN)NC(=O)[C@H](CCCCN)NC(=O)[C@@H]1CCCN1C(=O)CNC(=O)[C@H](CC(C)C)NC(=O)[C@H](CC(C)C)NC(=O)[C@H](Cc1ccc(O)cc1)NC(=O)CNC(=O)[C@H](C)NC(=O)[C@H](CO)NC(=O)[C@H](CC(N)=O)NC(=O)[C@H](CC(C)C)NC(=O)[C@@H](NC(=O)[C@H](Cc1c[nH]c2ccccc12)NC(=O)CNC)[C@@H](C)O)C(=O)N[C@@H](CCCCN)C(N)=O
half-life (CF-1 mouse, plasma; intraperitoneal, 2 mg/kg): 2 h

Cc1ccc(NS(=O)(=O)c2c(C(=O)N3CCCCCC3)c(C)n(C)c2C)c(Cl)c1
half-life (ICR mouse, male, plasma; intraperitoneal, dose not given): 0.828 h

CCCC[C@@H]1NC(=O)[C@H](Cc2ccc(O)cc2)NC(=O)[C@@H]2CCCN2C(=O)[C@H](CC(=O)O)NC(=O)[C@H](C)NC(=O)[C@H](Cc2ccccc2)NC(=O)[C@@H]2CSCCC(=O)N3CN(CN(C3)C(=O)CCSC[C@@H](C(=O)N[C@@H](C)C(N)=O)NC1=O)C(=O)CCSC[C@H](NC(C)=O)C(=O)N[C@@H](CC(C)(C)C)C(=O)N1CCC[C@H]1C(=O)N[C@@H](CCC(=O)O)C(=O)N[C@H](CCCCNC(=O)CCc1cn(CCOCCOCCOCCN(CCOCCOCCOCCC(=O)N[C@H]3CSCCC(=O)N4CN5CN(C4)C(=O)CCSC[C@H](NC(=O)[C@@H](CC(=O)O)NC(=O)[C@H](Cc4cccc6ccccc46)NC(=O)[C@@H]4CCCN4C3=O)C(=O)N[C@@H](CCSC)C(=O)N[C@@H](CCCCNC(=N)N)C(=O)N[C@@H](CC(=O)O)C(=O)N[C@@H](Cc3c[nH]c4ccccc34)C(=O)N[C@@H](CO)C(=O)N[C@@H]([C@@H](C)O)C(=O)N3CCC[C@H]3C(=O)N3C[C@H](O)C[C@H]3C(=O)N[C@@H](Cc3c[nH]c4ccccc34)C(=O)N[C@H](C(N)=O)CSCCC5=O)CCOCCOCCOCCn3cc(CCC(=O)NCCCC[C@H]4NC(=O)[C@H](CCC(=O)O)NC(=O)[C@@H]5CCCN5C(=O)[C@H](CC(C)(C)C)NC(=O)[C@@H](NC(C)=O)CSCCC(=O)N5CN6CN(C5)C(=O)CCSC[C@H](NC(=O)[C@H](Cc5ccc(O)cc5)NC(=O)[C@@H]5CCCN5C4=O)C(=O)N[C@@H](Cc4ccccc4)C(=O)N[C@@H](C)C(=O)N[C@@H](CC(=O)O)C(=O)N4CCC[C@H]4C(=O)N[C@@H](Cc4ccc(O)cc4)C(=O)N[C@@H](CCCC)C(=O)N[C@H](C(=O)N[C@@H](C)C(N)=O)CSCCC6=O)nn3)nn1)C(=O)N1CCC[C@H]1C(=O)N[C@@H](Cc1ccc(O)cc1)C(=O)N2
half-life (CD-1 mouse, plasma; intraperitoneal): 2.3 h

O=C[C@H](C[C@@H]1CCNC1=O)NC(=O)[C@H](Cc1cccc(F)c1)NC(=O)c1cc2ccccc2[nH]1
half-life (mouse; intravenous, 5 mg/kg): 1.65 h

CC(C)(CCCC/C=C/CCCCCC(C)(C)C(=O)O)C(=O)O
half-life (allometric estimate from V/CL; mouse, plasma): 4.55 h

CCCC[C@H](NC(=O)[C@H](CC(C)C)N(C)C(=O)CNC(=O)[C@@H](NC(=O)[C@H](Cc1ccc(O)cc1)NC(=O)[C@H](CCCCNC(=O)COCCOCCNC(=O)COCCOCCNC(=O)CC[C@H](NC(=O)CCCCCCCCCCCCCCCCC(=O)O)C(=O)O)NC(=O)[C@@H](N)CC(=O)O)C(C)C)C(N)=O
half-life (LC-MS; lean mouse, plasma; subcutaneous, 325 nmol/kg): 5.5 h

Cc1cccc2c1NC(=O)C2=Cc1ccc(-c2cccc(C(=O)N3CCCN(C)CC3)c2)o1 (mixture of isomers)
half-life (mouse; oral): 4.9 h

CC(C)C[C@@H](/C=C/CC(=O)NC1CC(C)(C)N([O])C(C)(C)C1)NC(=O)OC(C)(C)C
half-life (mouse C57BL/6NHsd, female, blood): 0.0833 h

C/C(=N\OCCCN1CCCCC1)c1ccc(C(F)(F)F)cc1
half-life (C57BL/6 mouse; oral, 10 mg/kg): 4.27 ± 0.67 h

A few entries again:
CCCCCCCC/C=C\CCCCCCCCOP(O)(O)=S.N
half-life (mouse, female, nonirradiated; sc, dose not given): 1.38 h

CC(C)C[C@@H](/C=C/CC(=O)NC1CC(C)(C)N([O])C(C)(C)C1)NC(=O)OC(C)(C)C
half-life (mouse C57BL/6NHsd, female, blood): 0.0833 h
